Measurements of several laboratories.
Lines come from different studies, so protocols differ. Several values in a cell are separate wells, animals, samples, runs or records. ± gives the spread as reported.

N=C(N)NCCC[C@@H]1NC(=O)[C@H](CCCNC(=N)N)NC(=O)[C@@H](CCCNC(=N)N)NC(=O)[C@@H](CCCNC(=N)N)NC(=O)[C@@H](C(c2ccccc2)c2ccccc2)NC(=O)[C@H](Cc2c[nH]c3ccccc23)NC(=O)[C@@H](C(c2ccccc2)c2ccccc2)NC1=O  viability (human liver cells; MTS; 100 µg/mL, 24 h): > 90%
CC[C@H](C)[C@@H](C(=O)N[C@@H](Cc1ccc(O)cc1)C(=O)N1CCC[C@H]1C(=O)N[C@@H](Cc1ccccc1)C(=O)O)n1cc(C(Cc2ccc(O)cc2)NC(=O)[C@@H](NC(=O)[C@H](CCCNC(=N)N)NC(=O)[C@@H](N)CC(=O)O)C(C)C)nn1 (stereo partly drawn)  viability (HEK293; cell growth or viability, MTT; 100 µM, 24 h): 81.8%
N=C(N)NCCC[C@@H]1NC(=O)[C@H](CCCNC(=N)N)NC(=O)[C@@H](Cc2ccc3ccccc3c2)NC(=O)[C@H](Cc2c[nH]c3ccccc23)NC(=O)[C@@H](Cc2ccc3ccccc3c2)NC(=O)[C@@H](CCCNC(=N)N)NC(=O)[C@@H](CCCNC(=N)N)NC1=O  viability (human liver cells; MTS; 200 µg/mL, 24 h): 74 to 77%
COc1cc(N2CCN(C(=O)C3CCCN3)CC2)ccc1Nc1ncc(Cl)c(Nc2ccccc2P(C)(C)=O)n1 (stereo not drawn)  viability (Ba/F3 EML4-ALK; cell growth or viability, CCK-8; 1 µM, 6 h): 58% and 60% and 57%
CC(=O)N[C@@H](Cc1c[nH]c2ccccc12)C(=O)N[C@@H](Cc1c[nH]c2ccccc12)C(=O)N[C@@H](Cc1c[nH]c2ccccc12)C(=O)N[C@@H](Cc1c[nH]c2ccccc12)C(=O)NCCCC[C@@H]1NC(=O)[C@H](CCCNC(=N)N)NC(=O)[C@H](CCCNC(=N)N)NC(=O)[C@H](CCCNC(=N)N)NC(=O)[C@H](CCCNC(=N)N)NC(=O)[C@H](CCCNC(=N)N)NC1=O  viability (CCRF-CEM; MTS; up to 10 µM, 24 h): ≥ 89%
c1cc2nc(c1)-c1cccc(n1)CCCc1ccc(cc1)OCCCCCCOc1ccc(cc1)CCC2  viability (HEK293; cell growth or viability, MTT; 12.5 µM, 24 h): 91.8%
CN1CCCNC(=O)c2cccc(c2)C(=O)NCCCN(C)CCCNc2cccc3c2C(=O)c2cccc(c2C3=O)NCCC1  viability (Ca9-22; cell growth or viability, CCK-8; 0.5 µM, 48 h): 47.7%
NC(=O)c1cccc(NC(=O)c2cc(-c3ccccc3)n(-c3ccccc3)n2)c1  viability (Vero; cell growth or viability; 12.5 µM): > 95%
C=CC(=O)Nc1cccc(Cn2ncc3cnc(Nc4cnn(CCOC)c4)nc32)c1  percent of control (TAOK3 human; binding, KINOMEscan; 100 nM; lower = stronger binding): 44%
O=C(Nc1cccc(CNc2ncccn2)c1)c1cc(-c2ccccc2)n(-c2ccccc2)n1  viability (Vero; cell growth or viability; 12.5 µM): > 95%
COC1CN([C@H]2CC[C@H]([C@@]3(C)Oc4c(Cl)cc(C(=O)NCc5c(SC)cc(C)[nH]c5=O)c(C)c4O3)CC2)C1  log2 fold change (RNA-seq, refers to: MEIS1 mouse homolog; mouse, HT-1376 xenograft, whole blood; dose not given; reference: vehicle): 0.383
O=C1NC2(CC2)COc2ncc(F)cc2[C@H]2COCCN2c2ccn3ncc1c3n2  revertant colonies (Salmonella typhimurium; Ames test; TA1535; 500 µg/plate, 48 h, added: without S9): 10 ± 2 revertants/plate
Cc1ncsc1-c1ccc(C(C)NC(=O)C2CC(O)CN2C(=O)C(NC(=O)CCCCCCCCCCN2CCCC(Nc3ncc(Cl)c(Nc4ccccc4S(=O)(=O)C(C)C)n3)C2)C(C)(C)C)cc1 (stereo not drawn)  log2 fold change (22Rv1; RNA-seq, refers to: ZNF564 mRNA; concentration not given; reference: DMSO): -2.3
C=C(NC(=O)c1csc(-c2nc3c(cc2O)-c2nc(cs2)C(=O)NC(C(C)O)C(=O)NC(=C(C)OC)c2nc(cs2)C(=O)NC2c4nc(cs4)C(=O)NC(COC(=O)c4c5c6c(cccc6n4O)COC(=O)C(OC4CC(C)(O)C(N(C)C)C(C)O4)C2OC5)c2nc-3cs2)n1)C(N)=O (stereo not drawn)  half-life (cynomolgus monkey, female, plasma; intravenous infusion, 3 mg/kg multiple doses, day 7): 365 min
O=CCNCCOn1c(=O)n(OCCNCCO)c(=O)n(OCCNCCOn2c(=O)n(OCCNCCO)c(=O)n(OCCNCCO)c2=O)c1=O  viability (HUVEC; cell growth or viability, MTT; 50 µg/mL, 72 h): 11.5%
